{"data": "Measured values gathered from unrelated publications", "note": "Numbered parts are unrelated; each lists some results of a single study. Substitutions count along the parent as printed."}
{"data": "Sample 1", "target": "Centromere-binding protein 1, full length, His-tagged (CBF1, Saccharomyces cerevisiae, UniProt P17106, residues 1-351)", "technique": "competition protein-binding microarray", "molecule type": "double-stranded DNA, one strand shown", "medium": "in vitro", "concentration": "2 µM", "notes": "whole 60-bp probe, lowest competitor level", "together with": "Pho4 competitor, 0.05 µM", "direction": "higher = stronger binding", "UniProt P17106, sequence (whole entry, looked up)": "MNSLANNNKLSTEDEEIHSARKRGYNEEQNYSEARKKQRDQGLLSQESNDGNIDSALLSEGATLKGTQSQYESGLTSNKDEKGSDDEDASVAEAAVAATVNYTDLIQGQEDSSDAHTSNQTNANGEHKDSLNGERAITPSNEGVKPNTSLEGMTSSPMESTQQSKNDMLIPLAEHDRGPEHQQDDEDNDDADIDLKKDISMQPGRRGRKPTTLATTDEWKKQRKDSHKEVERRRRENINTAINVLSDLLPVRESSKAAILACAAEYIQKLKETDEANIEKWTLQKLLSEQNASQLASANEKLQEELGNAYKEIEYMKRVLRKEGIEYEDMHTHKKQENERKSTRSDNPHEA"}
{"Sequence": "CTTCTGTAAATTTGGCCCGTGGGTGGACGCGCCCCGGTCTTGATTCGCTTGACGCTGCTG", "fluorescence intensity": "62.6 a.u."}
{"Sequence": "TGGGAATCCGCTTGGCGCGTGATGGAGCCAATGAACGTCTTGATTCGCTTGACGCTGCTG", "fluorescence intensity": "155 a.u."}
{"Sequence": "GTCGTCGTCGTACTCATCTAATAGTTCAATGTCTAAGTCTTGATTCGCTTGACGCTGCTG", "fluorescence intensity": "65.5 a.u."}
{"Sequence": "AAAGCGGTAATTTGTAGTGTGGGTGCAGATATCTATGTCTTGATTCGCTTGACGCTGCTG", "fluorescence intensity": "83.7 a.u."}
{"Sequence": "TTAGCTAATTTATCCCTCGTGGAATCTTGGAAGGAAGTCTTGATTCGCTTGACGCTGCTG", "fluorescence intensity": "82.3 a.u."}
{"Sequence": "AAAGCGGTAATTTGTCGCGTGGGTGCAGATATCTATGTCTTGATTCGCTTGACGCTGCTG", "fluorescence intensity": "97.7 a.u."}
{"Sequence": "CACTGTTGGCACCTCCACGTGTTGAATTACCAGGGCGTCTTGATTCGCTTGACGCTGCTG", "fluorescence intensity": "764 a.u."}
{"Sequence": "TATCGGTGGGCATTGTACCTGATCTTGCTAGACAAAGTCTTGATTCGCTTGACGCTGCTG", "fluorescence intensity": "65.1 a.u."}
{"data": "Sample 2", "target": "TAR DNA-binding protein 43, full length, His tag (TARDBP, Homo sapiens, UniProt Q13148, residues 1-414)", "technique": "RNA Bind-n-Seq", "molecule type": "RNA", "medium": "in vitro", "concentration": "20 nM", "notes": "6-mer, flanks averaged, single round", "together with": "150 mM LiCl", "relative to": "input library", "direction": "higher = stronger binding"}
{"Sequence": "UAUAAA", "6-mer enrichment (R)": 0.957}
{"Sequence": "UGCCCG", "6-mer enrichment (R)": 1.01}
{"Sequence": "CACUCG", "6-mer enrichment (R)": 0.82}
{"Sequence": "CGCCUA", "6-mer enrichment (R)": 0.883}
{"Sequence": "AUAUCC", "6-mer enrichment (R)": 0.863}
{"Sequence": "CUAGGG", "6-mer enrichment (R)": 0.981}
{"Sequence": "UCUGUG", "6-mer enrichment (R)": 1.11}
{"Sequence": "AAAUAC", "6-mer enrichment (R)": 0.85}
{"data": "Sample 3", "target": "Sal-like protein 4, full length isoform B (SALL4, Homo sapiens, UniProt Q9UJQ4-2, residues 1-616)", "technique": "universal PBM", "molecule type": "double-stranded DNA, one strand shown", "medium": "in vitro", "concentration": "not given", "notes": "8-mer, flanks averaged, mean of replicates", "direction": "higher = stronger binding"}
{"Sequence": "CAAGCAAC", "E-score": 0.00281}
{"Sequence": "ACAACACT", "E-score": 0.196}
{"Sequence": "CGCGGTTC", "E-score": -0.216}
{"Sequence": "ATGCGGGC", "E-score": -0.207}
{"Sequence": "AGAGAGGC", "E-score": -0.101}
{"Sequence": "GATGAAAC", "E-score": 0.089}
{"Sequence": "CTTGCTGA", "E-score": -0.131}
{"Sequence": "AGCCACAT", "E-score": 0.143}
{"data": "Mixed results", "parent": "PafA, mature enzyme, eGFP fusion (Elizabethkingia meningoseptica, UniProt Q9KJX5); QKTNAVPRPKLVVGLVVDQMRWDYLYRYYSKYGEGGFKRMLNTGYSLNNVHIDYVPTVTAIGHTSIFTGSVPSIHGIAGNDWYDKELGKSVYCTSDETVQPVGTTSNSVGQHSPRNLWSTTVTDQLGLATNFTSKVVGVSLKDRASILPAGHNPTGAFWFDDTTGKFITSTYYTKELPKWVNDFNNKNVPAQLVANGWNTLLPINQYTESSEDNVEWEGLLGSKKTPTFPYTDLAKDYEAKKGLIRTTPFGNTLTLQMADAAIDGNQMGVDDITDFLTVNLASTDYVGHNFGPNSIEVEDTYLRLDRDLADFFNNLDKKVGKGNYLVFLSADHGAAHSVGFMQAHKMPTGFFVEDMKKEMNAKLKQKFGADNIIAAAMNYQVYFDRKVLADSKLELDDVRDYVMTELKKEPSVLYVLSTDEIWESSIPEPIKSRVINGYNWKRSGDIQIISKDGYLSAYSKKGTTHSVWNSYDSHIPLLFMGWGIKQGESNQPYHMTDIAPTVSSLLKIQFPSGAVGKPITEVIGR"}
{"Variant": "L126V", "target": "vanadate, free oxyanion", "assay": "microfluidic competitive inhibition", "system": "in vitro, cell-free expressed", "setting": "not given, derived from inhibition constants, unchanged parent 676 nM", "how to read": "lower = stronger binding", "quantity": "oxyanion analog dissociation constant", "result": "0.473 µM"}
{"note": "Excerpt of the above (sample 1):"}
{"Sequence": "GTCGTCGTCGTACTCATCTAATAGTTCAATGTCTAAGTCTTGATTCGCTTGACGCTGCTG", "fluorescence intensity": "65.5 a.u."}
